Experimental data collected from several papers.
Every numbered part comes from another study and shows a few of its results, in no order.

Sample 1
Target: PABPC1L2, full length, GST fusion (mouse, UniProt A0ABA7IW68)
Method: RNAcompete
Molecule type: RNA
Matrix: in vitro
Tested at: 20 nM
Setting: 7-mer, probes averaged, single round
Relative to: mean of 7-mers
Reading: higher = stronger binding
Residues (chain): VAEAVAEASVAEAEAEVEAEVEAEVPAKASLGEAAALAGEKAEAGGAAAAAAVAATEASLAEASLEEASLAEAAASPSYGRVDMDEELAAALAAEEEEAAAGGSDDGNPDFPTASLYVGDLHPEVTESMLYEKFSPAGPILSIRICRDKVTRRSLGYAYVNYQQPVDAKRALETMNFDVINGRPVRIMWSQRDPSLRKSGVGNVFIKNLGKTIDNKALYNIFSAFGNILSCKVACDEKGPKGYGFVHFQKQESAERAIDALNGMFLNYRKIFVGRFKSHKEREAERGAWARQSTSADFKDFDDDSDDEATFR
`AAUGAUU` gave a 7-mer Z-score of 0.0986.
The 7-mer Z-score of `CGUAUUC` is reported as -0.322.
For `CAAGAAC`, the 7-mer Z-score was -0.0373.
For `GUUGCGC`, the 7-mer Z-score was -0.235.
The 7-mer Z-score of `GCACGCC` is reported as -0.142.
`ACCGUAC` has a 7-mer Z-score of -0.275.
The 7-mer Z-score of `CCUGUCC` is reported as -0.385.
For `GGCCGGU`, the 7-mer Z-score was -0.113.
With `CCCAGUU` the 7-mer Z-score was -0.255.
`CCGGCAC` has a 7-mer Z-score of -0.389.
With `CGUAAUG` the 7-mer Z-score was -0.0935.
`GGGAGCA` has a 7-mer Z-score of 0.249.
With `UGAACGU` the 7-mer Z-score was -0.188.
`UGUAUAA` gave a 7-mer Z-score of 0.311.
The 7-mer Z-score of `GACUGCU` is reported as -0.222.
With `UCAGCCC` the 7-mer Z-score was -0.362.
With `AGGAUCA` the 7-mer Z-score was 0.231.
`ACUGAGC` gave a 7-mer Z-score of -0.0355.
`CAUCAGA` gave a 7-mer Z-score of 0.0623.
`GCUAGUG` gave a 7-mer Z-score of -0.162.

Sample 2
Target: Histone acetyltransferase KAT6A, both winged helices, GST fusion (KAT6A, Homo sapiens, UniProt Q92794, residues 1-181)
Method: protein binding microarray
Molecule type: double-stranded DNA, one strand shown
Matrix: in vitro
Tested at: not given
Setting: 8-mer, flanks averaged, mean of 2 arrays, mostly near background
Relative to: not given
Reading: higher = stronger binding
Construct (chain): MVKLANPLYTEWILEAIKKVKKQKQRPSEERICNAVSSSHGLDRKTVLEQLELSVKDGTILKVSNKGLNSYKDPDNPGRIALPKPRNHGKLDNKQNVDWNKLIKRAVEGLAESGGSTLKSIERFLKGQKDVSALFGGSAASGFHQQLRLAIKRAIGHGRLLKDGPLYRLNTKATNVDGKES
`CCCTTAAG` gave an E-score of -0.0942.
`AGAAGGTG` has an E-score of -0.23.
`GCCCTTGA` gave an E-score of -0.13.
`CCGCTGCC` gave an E-score of 0.142.
For `ATTCACCG`, the E-score was 0.201.
For `ATAAGGGA`, the E-score was -0.234.
For `CGCCACTA`, the E-score was 0.15.
`GTTCTCGA` has an E-score of -0.0796.
With `AAAATCCG` the E-score was 0.0383.
For `TCCGACCA`, the E-score was 0.182.
`ATCTGAAA` has an E-score of -0.0521.
With `CGACAACC` the E-score was 0.0416.
The E-score of `GCTTACCC` is reported as -0.0149.
With `GCAATACC` the E-score was 0.0414.
With `CAGTTAAA` the E-score was -0.169.
`AATAGAGC` has an E-score of -0.159.
With `CCTTGCAC` the E-score was -0.143.
With `GAATCCGC` the E-score was 0.14.
`AGAGGATA` gave an E-score of -0.307.
For `CAAACCTG`, the E-score was -0.0991.
`GAGCCCGC` gave an E-score of 0.157.
For `ACCGCGCT`, the E-score was 0.31.

Sample 3
Target: Ras GTPase-activating protein-binding protein 1, full length (G3BP1, Homo sapiens, UniProt Q13283)
Chain of UniProt Q13283 (whole entry, looked up): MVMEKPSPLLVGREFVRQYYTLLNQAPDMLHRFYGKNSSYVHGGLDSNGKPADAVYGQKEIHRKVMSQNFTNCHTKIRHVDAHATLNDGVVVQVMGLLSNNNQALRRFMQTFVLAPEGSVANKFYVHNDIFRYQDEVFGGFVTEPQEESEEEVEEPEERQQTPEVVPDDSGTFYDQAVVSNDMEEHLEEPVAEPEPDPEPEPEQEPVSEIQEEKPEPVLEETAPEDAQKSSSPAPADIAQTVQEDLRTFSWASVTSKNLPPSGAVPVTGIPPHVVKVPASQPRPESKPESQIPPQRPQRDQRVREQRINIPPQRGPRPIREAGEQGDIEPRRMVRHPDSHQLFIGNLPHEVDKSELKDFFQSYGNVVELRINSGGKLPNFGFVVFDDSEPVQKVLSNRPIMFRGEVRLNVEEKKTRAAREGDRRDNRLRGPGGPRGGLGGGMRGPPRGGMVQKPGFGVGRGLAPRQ
Method: RNA Bind-n-Seq
Molecule type: RNA
Matrix: in vitro
Tested at: 200 nM
Setting: whole 134-nt RNA, ends assumed
With: 150 mM LiCl
Relative to: input library
Reading: higher = stronger binding
Each molecule: 7-deaza-guanosine replaces G
All sequences stand within: GGGAGUUCUACAGUCCGACGAUC … UGGAAUUCUCGGGUGUCAAGG
The log2 enrichment of `UCCUCAAGUCCUGUGCUACACAUCGUAUGUACCGAAUCGGGGCGGGCGGCGGAAAGUAUUAUGUUACGCCGUUCGGAUCUGCACUUCCAG` is reported as 0.072.
`UAGCAAGCCAAAUUACAGCAGCAGAUGGACCUGCAGAAAAAUCACAUUUUCCGUCUGACUCAAGGACUGCAAGAAGCUCUAGAUCGGGCU` has a log2 enrichment of -3.12.
For `UGUCUCGAGCAGGGGACAAGACGUUCGAGGAGUACCUGGAUGAGUAUUACCGGCUGGACUACGAGGACAUCAUCGACGACCUGCCCUGUC`, the log2 enrichment was -0.388.
For `CAAGUCCUGUGCUACACAUCGUAUGUACCGAAUCGGGGAAAGGGAAAGGGGAAAGGAAAGUAUUAUGUUACGCCGUUCGGAUCUGCACUU`, the log2 enrichment was -0.712.
`GUCCUGUGCUACACAUCGUAUGUACCGAAUCGGAAAAAAGGGAAAAAAGGAAAAAAGGAAAGUAUUAUGUUACGCCGUUCGGAUCUGCAC` has a log2 enrichment of -0.718.
`UUACACAAACCUGCAGGUGAAGACAGGCCAGCGGACCCUCAUCAACCCCAAGCCCUGUGGCCAGUUUUGCUGCUGUGAAGUGCUGGGCUG` gave a log2 enrichment of 0.107.
For `UAACUUUAGAGGAGGAUCUGAUGGAUAUGGCAGUGGACGUGGAUUUGGGGAUGGCUAUAAUGGGUAUGGGGGAGGACCUGGAGGUGGCAA`, the log2 enrichment was -0.112.
For `AGUCCUGUGCUACACAUCGUAUGUACCGAAUCGGAAAAAGGGGAAAAAGGAAAAAGGAAAGUAUUAUGUUACGCCGUUCGGAUCUGCACU`, the log2 enrichment was -1.05.

Sample 4
Target: human cyclin A2
Method: competitive growth deep sequencing
Molecule type: peptide
Organism: Saccharomyces cerevisiae
Strain: cyclin A2-Cln2 fusion strain
Setting: peptide tiling library
Reading: direction not given
With `DWDTVERQEEEAPSWD` the enrichment score was 1.36.
`GAEELEDLVHFSVSEL` has an enrichment score of 2.02.
`NNIRKALSFDNRGEEH` gave an enrichment score of 0.557.
With `NFETPEAETPIRSPFK` the enrichment score was 0.541.
The enrichment score of `PPTFLSTGEIHAFLSS` is reported as -0.516.
`TTTTSPRTPPPLTVQD` gave an enrichment score of 0.658.
`PPKPLKKLRFDIEGSD` gave an enrichment score of 0.17.
For `LRRQLSFSED`, the enrichment score was 1.06.
`LRRKLFLDGNGSIS` gave an enrichment score of -0.558.
`ARKRLELGNLGNPQ` gave an enrichment score of 2.3.
`RKLDLEGIGR` has an enrichment score of 2.17.
For `VSRNLRSSLKSSLHTL`, the enrichment score was -0.911.
The enrichment score of `SCCKRKLVVGNGPEGP` is reported as -0.0776.
`KVKRRLDLDIDGLQKE` has an enrichment score of 1.94.

A few entries again (sample 1):
With `CCCAGUU` the 7-mer Z-score was -0.255.
`CCGGCAC` has a 7-mer Z-score of -0.389.
For `CAAGAAC`, the 7-mer Z-score was -0.0373.
For `GUUGCGC`, the 7-mer Z-score was -0.235.
The 7-mer Z-score of `GACUGCU` is reported as -0.222.
The 7-mer Z-score of `GCACGCC` is reported as -0.142.
The 7-mer Z-score of `CCUGUCC` is reported as -0.385.
`GGGAGCA` has a 7-mer Z-score of 0.249.
With `UCAGCCC` the 7-mer Z-score was -0.362.
